Measurements gathered from unrelated publications.
Lines come from different studies, so protocols differ. ± gives the spread as reported. Values after ≈ are worked out from the molar mass of the structure shown.

SMILES	test	system	conditions	scale	measurement	value
O=C(N[C@H](Cc1c[nH]c2ccccc12)C(=O)Nc1ccncc1)c1ccc(-c2ccc(F)c(Cl)c2)cc1F	–	Swiss Webster mouse, female, lung	oral, 50 mg/kg, 8 h, 20% Kolliphor vehicle	–	concentration	40.9 µM
CC(=O)c1cccc(NC(=O)CSc2nnc(-c3cc4ccccc4cc3O)n2C)c1	–	aqueous buffer	pH 7.4	–	thermodynamic solubility	< 7.14 µM
COc1ccc2c(c1)c(CC(=O)O)c(C)n2C(=O)c1ccc(Cl)cc1	shake-flask	Cremophor ELP	37 °C, water up to 0.5% w/w	–	thermodynamic solubility	80.6 ± 3.69 mg/g
C[C@H]1O[C@@H](O[C@H]2[C@@H](O)C[C@H](O[C@H]3[C@@H](O)C[C@H](O[C@H]4CC[C@@]5(C)[C@H](CC[C@@H]6[C@@H]5C[C@@H](O)[C@]5(C)[C@@H](C7=CC(=O)OC7)CC[C@]65O)C4)O[C@@H]3C)O[C@@H]2C)C[C@H](O)[C@@H]1O	measured: Nausea	human	oral, 0.25 mg	–	participants with TEAE	3.4%
N#Cc1ccc2c(c1)[C@H]1CCCN(C(=O)c3ccc4[nH]cnc4c3)[C@H]1C2	–	human	20 mg, day 15	–	minimum ACTH level	3.5 pmol/L
Cc1nc(-c2ccc(OCC(C)C)c(C#N)c2)sc1C(=O)O	–	human, plasma	oral, 10 mg, added: verinurad 5 mg	relative to: test over reference	geometric mean ratio AUC(0-24)	97.6
C[C@@H](NC(=O)N1C(=O)[C@H](Cc2ccnc(N)c2)[C@H]1C(=O)O)C1CCCCC1	UPLC-MS/MS	healthy adult Chinese volunteers, plasma	continuous intravenous infusion, 0.6 mg/kg/h, day 6 of 5-day infusion, mean	–	Vd	0.544 L/kg
CN(CCCN1CCN(C(=O)CN2CCN(CC(=O)[O-])CCN(CC(=O)[O-])CCN(CC(=O)[O-])CC2)CC1)c1ccc2nccc(C(=O)NCC(=O)N3CC(F)(F)C[C@H]3C#N)c2c1.[68Ga+3]	–	mice, HT-1080.hFAP and HT-1080 wild-type xenografts, stomach	iv, 500 pmol, 4 h post injection	–	uptake	0.1 %IA/g
CCc1cc(C(=O)NC)c2nccc(N3CCc4c(cc(Cn5ccnc5)cc4-c4cn(C)nc4C(F)(F)F)C3=O)c2c1	–	Sprague Dawley rats	oral, 100 mg/kg once daily, 7 days	–	serum cholesterol	2.4 ± 0.52 mmol/L
CCCCCc1ccc(C(=O)Oc2ccc(C#N)c(F)c2)cc1	–	Sprague-Dawley rat, female, placenta	5000 ng/mL in perfusate, 50 (unit not given), high dose, mixture of 21 LCMs	–	median placental accumulation	37.6 ng/g
COc1ccccc1-c1nc(N2CCC(c3ccccn3)C2)c2ccccc2n1 (stereo not drawn)	–	Japanese Pharmacopoeia disintegration test solution 2	pH 6.8	–	kinetic solubility	12 µg/mL (≈ 31.4 µM)
Cc1cccc(CNC(=O)c2cn(CCNC(=O)c3ccccc3Sc3c([N+](=O)[O-])ncn3C)c3cc4c(cc3c2=O)OC(F)(F)O4)n1	–	Sprague-Dawley rat, male, whole blood	intramuscular, 30 mg/kg of parent drug	–	Cmax	29.4 ± 14.7 ng/mL
NC(=O)N1c2ccccc2CC(O)c2ccccc21 (stereo not drawn)	population PK modelling	human patients, plasma	weight-scaled, no back-conversion	–	clearance	2.75 L/h
CCO[C@H]1CCN(Cc2c(OC)cc(C)c3[nH]ccc23)[C@H](c2ccc(C(=O)O)cc2)C1	–	human moderate hepatic impairment, plasma	oral, 200 mg single dose, mean	–	unbound AUClast	5980 ng·h/mL
CCCCC1=NC2(CCCC2)C(=O)N1Cc1ccc(-c2ccccc2S(=O)(=O)Nc2noc(C)c2C)c(COCC)c1	–	blood and plasma	–	–	blood-to-plasma ratio	0.612
O=C(Nc1nc2cccc(-c3ccc(CN4CCS(=O)(=O)CC4)cc3)n2n1)C1CC1	measured: immune system disorders	human rheumatoid arthritis patients	oral, 150 mg once daily, 4 weeks, regardless of relatedness	–	treatment-emergent adverse events	0%
O=C(c1cc(Cc2n[nH]c(=O)c3ccccc23)ccc1F)N1CCN(C(=O)C2CC2)CC1	–	human	oral, dose not given, reverse dosing order	–	clearance change	28%
O=C1NCCc2nc(OCc3cccc(F)c3)ccc21	measured: Vasodilatation	Sprague-Dawley rat male	oral, 100 mg/kg, 0 min	relative to: baseline, direction not given	Irwin test score	0
CCN1/C(=C/C(C)=O)Sc2ccc(F)cc21	–	cynomolgus monkey	oral, 100 mg/kg, 4 h post-dose	–	heart rate	100 ± 23 beats/min
CC[C@H](C)[C@H](NC(=O)[C@H](C)NC(=O)[C@H](CCCNC(=N)N)NC(=O)[C@H](CCCCN)NC(=O)[C@H](Cc1c[nH]c2ccccc12)NC(C)=O)C(=O)N[C@@H](CC(C)C)C(=O)N[C@@H](CCCNC(=N)N)C(=O)N[C@@H](C)C(=O)N[C@@H](CC(C)C)C(=O)N[C@@H](CC(C)C)C(=O)N[C@@H](CCC(N)=O)C(=O)N[C@@H](CCC(=O)O)C(N)=O	circular dichroism	10 mM phosphate buffer	pH 7.4, 20 °C	–	helicity	17%
O=C(NCCN1CCCC1)c1cc(-c2ccc(CN3CCOCC3)cc2)nc2ccc(F)cc12	–	human whole blood	-70 °C, citric acid buffer 100 mM, 1/1 v/v	–	stability duration	376 days

A few entries again:
SMILES	test	system	conditions	scale	measurement	value
O=C(NCCN1CCCC1)c1cc(-c2ccc(CN3CCOCC3)cc2)nc2ccc(F)cc12	–	human whole blood	-70 °C, citric acid buffer 100 mM, 1/1 v/v	–	stability duration	376 days
O=C1NCCc2nc(OCc3cccc(F)c3)ccc21	measured: Vasodilatation	Sprague-Dawley rat male	oral, 100 mg/kg, 0 min	relative to: baseline, direction not given	Irwin test score	0
